Assay results gathered from unrelated publications.
Every numbered part comes from another study and shows a few of its results, in no order. Positions count from the first letter of the parent shown.

Study 1
Target: RING finger protein unkempt homolog, zinc fingers 1-6, GST-SBP tag (UNK, Homo sapiens, UniProt Q9C0B0, residues 30-357)
Technique: RNA Bind-n-Seq
Molecule type: RNA
Sample: in vitro
Concentration: not given
Notes: RNA with constant flanks, ends assumed
Relative to: input RNA pool
Direction: higher = stronger binding
Shared flanks, not repeated: GGGAGUUCUACAGUCCGACGAUC … CAACAGAGGAUUGAGCAUCA
Target sequence (chain): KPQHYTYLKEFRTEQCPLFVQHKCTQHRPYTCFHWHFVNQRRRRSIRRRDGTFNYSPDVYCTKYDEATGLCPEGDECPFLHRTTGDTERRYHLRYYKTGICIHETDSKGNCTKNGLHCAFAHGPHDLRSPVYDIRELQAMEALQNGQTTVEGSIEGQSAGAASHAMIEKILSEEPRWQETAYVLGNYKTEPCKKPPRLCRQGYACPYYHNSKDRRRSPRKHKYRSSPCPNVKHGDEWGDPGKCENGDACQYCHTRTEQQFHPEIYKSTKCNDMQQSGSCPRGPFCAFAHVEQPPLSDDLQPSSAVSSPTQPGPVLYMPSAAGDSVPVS
Oligonucleotide | bound/input enrichment [ratio]
UUCGUUGCCUGUAAGCCCACUUGCUUCUCACUUCAUCAGACAAGCUCAAUACACACAAGACCGUAAUUUAAUGGGAGCUGUUAGGCUGGUCCACACGUGAAGAGAAACAAUUUCUAGCCU | 0.148
UUAGAAUGUUAUUUAGACCAAGUUUAGCUUUUAGAGUCCAGGUCUGGUUAAUUGCCAGGGCCGCAAAGAAUCGCAUGCACCAAUGUAAACAGGAGUCAGAAUGCAUUAUUAGUCAAAGAU | 1.79
AAUUUGUCUUGUGAUUUUAAACUUAUGAGUCAAGAAGGGUCUCUUCCUUUAUCAUUGCCUUUCCGGAAAUUUUCCACAUCUUUCAGUGUUUGAACUUACUUGUGCUUGAGAUUCUACAGU | 0.137
GACGUUGAGAGGAUUGUUUAUUUGAUUUUUAUCCUCAUCCCAGCAGGCCUGGCUUUGUGGUCCGUUGGGUACAUCACAAAAAUAAGUUAAAAAGAAAUAUUUGUGCCUUGGGGAGAAGAA | 0.268
ACCGCCCGGGUCGUGGAGCCAGGAGCGACGUCACCGCCAUGGCGGGCAUCAAAGCUUUAAUCCGUUUGUCCUUUGGAGGAGCGAUCGGGCUGAUGUUCCUGAUGCUUGGAUGUGCCCUUC | 0.165
ACCUCCCAAGUCCUGUAUGAGUGGGAACAGGGAUUUUCUCAGUCCUUCACUCAAGAACAAGCCGCUGAUAUUGAUGGACAGUAUGCAAUGACUCGAGCUCAGAGGGUACGAGCUGCUAUG | 0.164
GUCUGUGGCCGCAGUGACACCAUCGACACCGUCUCUGUGCCGUAUGUCUUCCGGUACUUUGCCGCUGAGCUGGCAGCCAUGAACAUCAAAGUGAAACUGGAUGUCAUCUGACUUGAUCCC | 0.0761
CAGUGGUAAAGUGAAGCAAAUUGUUCUACCAAGACCUCAUUCUUCAUGUCAUUAAGCAACCGGUUGCAGCAAACAAGGAAGAGCUUCUUGCUUUUUAUUCUUCCAACCUUAAUUGAACAC | 0.179
AUGGCUUGGACGAUAUUAAGGACCGCUCGACGCUGGGAGAGAAACUGGGGGGCAGUGUUGCCGUUUCCCUUGAAGGAAAGCCACUAUAAAAUAAUAGCCAAGUGCCAUUUGAUCUUAAGG | 0.29
CAUAAUUAUGGUGCUCGUCCUCCUCCAACACCUCCAGCAUCCCCUCCUCCAUCAGGUCUCAUCCGCAAAAACGAAGUAGGCAUAUUUACCACUCCUAAUUUUGAUGAAACUUCCAGUGCU | 0.395
CCGAAGCCUUUCUCUCAAAUCUAGUAGUUAACAAGACCAUCUUUGCUAAAGUAGACAGAUCCGCAGGAAUUAUCAACUUCCAGAGACCCAAGGAUCCAAAUAAUUUAUUAAAUGACUGGU | 2.07

Study 2
Molecule: PhoQ, residues 284 288 289 292 302 303 TVTVVA
Technique: Sort-seq
Refers to: YFP reporter
Sample: E. coli
Notes: PhoQ-PhoP variant library
Added: 10 µM Mg2+
Relative to: high Mg2+ state
Direction: higher = stronger signaling
target | fold induction
PhoP, residues 12 14 15 18 19 ICWRQ (Escherichia coli, UniProt P23836) | 2.74
PhoP, residues 12 14 15 18 19 VHTVL (Escherichia coli, UniProt P23836) | 5.35
PhoP, residues 12 14 15 18 19 TQCLL (Escherichia coli, UniProt P23836) | 11.2

Study 3
Target: CCNE2, cyclin fold, Cln2 fusion (human)
Technique: yeast growth competition, sequencing
Sample: yeast
Notes: weak parent motif
Relative to: not given
Direction: higher = stronger binding
Parent: FZR1 docking peptide (human); QDYERRLLRQIVI; partner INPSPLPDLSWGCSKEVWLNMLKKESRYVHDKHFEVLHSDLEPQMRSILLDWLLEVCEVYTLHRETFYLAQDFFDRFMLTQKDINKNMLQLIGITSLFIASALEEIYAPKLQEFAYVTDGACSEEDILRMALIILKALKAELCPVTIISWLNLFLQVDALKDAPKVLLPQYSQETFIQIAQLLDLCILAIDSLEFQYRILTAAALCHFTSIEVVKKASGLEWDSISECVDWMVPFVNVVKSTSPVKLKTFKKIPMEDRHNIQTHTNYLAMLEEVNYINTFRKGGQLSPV
Change | normalised enrichment score
L7A | 0.72
I11A | 0.713
R5K L8F | 0.428
D2A | 0.463
Q1A | 0.456
R6A | 0.538
L8A | -0.133

Study 4
Target: RNA binding protein fox-1 homolog 2, RRM domain, GST-SBP tag (RBFOX2, Homo sapiens, UniProt O43251-10, residues 100-194)
Technique: RNA Bind-n-Seq
Molecule type: RNA
Sample: in vitro
Concentration: 365 nM
Notes: natural RNA segment, single round, ends assumed
Relative to: no-protein control
Direction: higher = stronger binding
Shared flanks, not repeated: GGGAGUUCUACAGUCCGACGAUC … UGGAAUUCUCGGGUGCCAA
Construct (chain): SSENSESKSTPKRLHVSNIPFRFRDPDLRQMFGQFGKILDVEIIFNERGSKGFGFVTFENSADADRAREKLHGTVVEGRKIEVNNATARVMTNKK
Oligonucleotide | RBNS enrichment (R)
AGAAAACAGCAAGCGAUGGCUGAUAAAUCUUAUCUUGCCAGAGGUAGUUUUUGAACAAGAAAAAGAACUUUGUAAAUCAUAUCAUUGGGAAAGUAUUUUCAAUAUUUAAA | 0.683
UCCUUAAUUCUGCUAGAGUUAACCUUGAGUUCAGAGCAGUAUUAAAUGCGUGCACUUUCAGGUCAGUACUGGGGACCAAGUACCCUCUGGUCUUUUGUGAAUGGAUGGUU | 0.74
AUUUGUGAGGAGGAGCCGAGGCCCCAGCUUCAUCCAGCUUCAACCAAUGCCUGGACCUGUCCACCUGAGAGGCCCCUGGGGCCUCCCCAGCUGCUGGCCAGACCCUGGCG | 0.145
GCCCUUGCCUGGGGAAGCCCACCAGGGGUUCUGGCUUCUGAGGGGCACCUGUCCCUCCUCUCCCCUCACCCUACACUUGUUCCAGCUCUUUGAAAUAGUUUGUGUGAAGG | 0.391
UCUGUUUGAAGAGCAUCAUUGCUAACUAGCAUGAAGCAGAGGGCAAUGAUGCCUGUAAAUAUGAAAAUGUGCCUGUAAGAGUAACAGGUAUCGCUGGGCAGUGGUGGCAC | 3.61
GCCAGCCAGUAUCACCAGACCUCUGCUGGACCUAGUCAAGAAGCCCAGUUAACAUGUAGAGCAUGGGCUCAAGAUGAAACCUUGUGUUUAUAGAACGGAUGUUUAGGUGA | 0.89
UAUGGGAUUCAACAAAAGCCUAUUAUGCUUGUUUGCAUUAUGGUUACAAUAUUAAAAAGUGGAUUCACUUGGCUGGCUGCUGUCUUCUGUUGGAUUUGCUUGGAGUUUCU | 0.448
CAAAUUGUCAACUCCCUUGCCCAAUACUGGUGGGCUGUGAACAGCCUAAGGGACCUCGCUCCAGCUGGUUGGGCACAGCAGGCUCCUGCCCUGGUGCUUUCAGCUUCCCC | 0.25
GCCAAUUGUAAUUCUUUUGCCCUAAGGACUAGGGACUCCUAAGUUGAGGGUUGUGAUCAGAGGUCCCAUCUCUUUACAGUGUCACUUCAAUCUGUUUGUGUUUCUGAGCC | 0.456
CAAUGGGUUCCGUUUCUCCUUUUCCCCUCUGGAUUUUAAAUAAAUAUUUAAAACUGAGGCAAUGGAAUGACACGCCUGUGGUCCCGUGCUGCUUCUCAAAGCUCAGGGGG | 0.273
CCCUGGGGCCUCUAGUGUAUUGUAUUAUAUUUCUGUGGAAAGUCAUGUUUAGUCAAAUUGGAAUCCACUCACCUGUUCCCUUUGUUUUCCCUAUCCCUUCUCCUGAGCAC | 0.778
UUUUUUUAAUGAACUGUCACUUUUAACCCCCUCCUCUGCUGGCCGGGGGAUGGAAAGGAAGAUAAAUGUUAUUUGUUCACUUUUGUAAGACUCUGUUCUGGGUGUGGGCC | 0.571

A few entries again (study 1):
Oligonucleotide | bound/input enrichment [ratio]
CAGUGGUAAAGUGAAGCAAAUUGUUCUACCAAGACCUCAUUCUUCAUGUCAUUAAGCAACCGGUUGCAGCAAACAAGGAAGAGCUUCUUGCUUUUUAUUCUUCCAACCUUAAUUGAACAC | 0.179
AUGGCUUGGACGAUAUUAAGGACCGCUCGACGCUGGGAGAGAAACUGGGGGGCAGUGUUGCCGUUUCCCUUGAAGGAAAGCCACUAUAAAAUAAUAGCCAAGUGCCAUUUGAUCUUAAGG | 0.29
